Experimental data from different studies.
Protocols differ between the studies behind these lines. ± marks the error that the study gave.

SMILES	test	system	setting	scale	measurement	value
CC(=O)N[C@@H](CCCCN)C(=O)N[C@@H](CS)C(=O)N[C@@H](CS)C(=O)N[C@@H](Cc1ccc(O)cc1)C(=O)N[C@@H](CO)C(=O)N[C@@H](CC(C)C)C(=O)NCC(=O)NCC(=O)NCC(=O)N[C@@H](CO)C(=O)N[C@@H](CO)C(=O)N[C@@H](CCCCN)C(=O)N[C@@H](Cc1ccc(O)cc1)C(=O)N[C@@H](CCC(N)=O)C(=O)N[C@@H](CO)C(=O)N[C@@H](CC(C)C)C(=O)OCCN(c1ccccc1)C(C)c1cc(C)cn2c(=O)cc(N3CCOCC3)nc12 (stereo partly drawn)	–	mouse serum 50%	5 µM, 37 °C	–	half-life	0.25 h
CSCC[C@H](NC(=O)[C@H](CC(C)C)NC(=O)[C@H](Cc1c[nH]cn1)NC(=O)CNC(=O)[C@@H](NC(=O)[C@H](C)NC(=O)[C@H](Cc1c[nH]c2ccccc12)NC(=O)[C@H](CCC(N)=O)NC(=O)CCCCCNC(=O)CNC(=O)CNC(=O)CNC(=O)CSC(C)=O)C(C)C)C(N)=O [technetium-99m labelled]	–	healthy Swiss mouse, large intestine, contents removed	intravenous, 18.5 MBq, 240 min	–	tissue uptake	19.4 ± 0.9 %ID/g
CCCC[C@H](NC(=O)CCCCCCCNC(=O)c1ccc(NN)nc1)C(=O)N[C@H]1CC(=O)NCCCC[C@@H](C(N)=O)NC(=O)[C@H](Cc2c[nH]c3ccccc23)NC(=O)[C@H](CCCNC(=N)N)NC(=O)[C@@H](Cc2ccccc2)NC(=O)[C@H](Cc2c[nH]cn2)NC1=O [technetium-99m labelled]	–	C57 mouse, B16/F1 melanoma, heart	intravenous, 0.5 h	–	uptake	1.75 ± 0.31 %ID/g
N=C(N)NCCC[C@H](NC(=O)[C@H](CCCCN)NC(=O)[C@H](CCC(N)=O)NC(=O)CCOCCOCCOCCNC(=O)CN1CCN(CC(=O)O)CCN(CC(=O)O)CCN(CC(=O)O)CC1)C(=O)N[C@@H](CCCCN)C(=O)N[C@@H](CCCNC(=N)N)C(=O)N[C@@H](CCCCN)C(=O)N[C@@H](CCCCN)C(=O)N[C@@H](CO)C(=O)N[C@@H](CCCNC(=N)N)C(=O)N[C@@H](Cc1ccc(O)cc1)C(=O)N[C@@H](CCCCN)C(=O)N[C@@H](CO)C(=O)O [copper-64 labelled]	PET	mice, B16-F10 melanoma	intravenous	–	time to best imaging quality	≤ 1 h
N=C(N)NCCC[C@@H]1NC(=O)[C@H](CCCCNC(=O)CCOCCOCCOCCOCCNC(=O)CC[C@H](NC(=O)CCOCCOCCOCCOCCNC(=O)CC[C@H](NC(=O)CN2CCN(CC(=O)O)CCN(CC(=O)O)CCN(CC(=O)O)CC2)C(=O)NCCOCCOCCOCCOCCC(=O)N[C@@H](CCC(=O)NCCOCCOCCOCCOCCC(=O)NCCCC[C@@H]2NC(=O)[C@@H](Cc3ccccc3)NC(=O)[C@H](CC(=O)O)NC(=O)CNC(=O)[C@H](CCCNC(=N)N)NC2=O)C(=O)NCCOCCOCCOCCOCCC(=O)NCCCC[C@@H]2NC(=O)[C@@H](Cc3ccccc3)NC(=O)[C@H](CC(=O)O)NC(=O)CNC(=O)[C@H](CCCNC(=N)N)NC2=O)C(=O)NCCOCCOCCOCCOCCC(=O)NCCCC[C@@H]2NC(=O)[C@@H](Cc3ccccc3)NC(=O)[C@H](CC(=O)O)NC(=O)CNC(=O)[C@H](CCCNC(=N)N)NC2=O)NC(=O)[C@@H](Cc2ccccc2)NC(=O)[C@H](CC(=O)O)NC(=O)CNC1=O [indium-111 labelled]	–	athymic nude mice, female, U-87 MG glioma xenograft, tumour and kidney	intravenous, 1 h	reference: tumour over kidney	tumour to tissue ratio	1.56 ± 0.41
CC(C)C[C@@H]1NC(=O)[C@H](C(C)C)NC(=O)[C@H](CO)NC(=O)CNC(=O)CNC(=O)[C@H](CCCNC(=N)N)NC(=O)[C@@H]2CCCN2C(=O)[C@@H](NC(=O)CC[C@H](NC(=O)c2ccc(N(C)Cc3cnc4nc(N)nc(N)c4n3)cc2)C(=O)O)C(C)(C)SSC[C@@H](C(=O)O)NC(=O)CNC(=O)[C@H]([C@@H](C)O)NC(=O)[C@H](C(C)C)NC1=O	chemical stability	carbonate buffer	100 µM, pH 10.0, 70 °C	–	half-life	30.1 h
Cc1ncsc1-c1ccc(CNC(=O)[C@@H]2C[C@@H](OC(=O)OCCSSCCn3cc(CCCC(=O)N[C@@H](Cc4ccc(O)cc4)C(=O)N[C@@H](CCCNC(=N)N)C(=O)N[C@@H](CCCNC(=N)N)C(=O)N[C@@H](CCCNC(=N)N)C(=O)N[C@@H](CCCNC(=N)N)C(=O)N[C@@H](CCCNC(=N)N)C(=O)N[C@@H](CCCNC(=N)N)C(=O)N[C@@H](CCCNC(=N)N)C(=O)N[C@@H](CCCNC(=N)N)C(=O)N[C@@H](CCCNC(=N)N)C(N)=O)nn3)CN2C(=O)[C@@H](NC(=O)COCCOCCOCCNC(=O)C[C@@H]2N=C(c3ccc(Cl)cc3)c3c(sc(C)c3C)-n3c(C)nnc32)C(C)(C)C)cc1	UHPLC	PBS	100 nM, 0 h, 37 °C, added: 5 mM glutathione	reference: total peak area	remaining intact compound	100%
CCCC[C@H](NC(=O)CNC(=O)CNC(=O)c1ccc(NN)nc1)C(=O)N[C@H]1CC(=O)NCCCC[C@@H](C(N)=O)NC(=O)[C@H](Cc2c[nH]c3ccccc23)NC(=O)[C@H](CCCNC(=N)N)NC(=O)[C@@H](Cc2ccccc2)NC(=O)[C@H](Cc2c[nH]cn2)NC1=O [technetium-99m labelled]	–	C57 mouse, B16/F1 melanoma-bearing, bone	intravenous, 0.5 h	–	tissue uptake	0.76 ± 0.1 %ID/g
N=C(N)NCCC[C@@H]1NC(=O)[C@H](CCCCNC(=O)CC[C@H](NC(=O)CCOCCOCCOCCOCCNC(=O)CN2CCN(CC(=O)O)CCN(CC(=O)O)CCN(CC(=O)O)CC2)C(=O)NCCCC[C@@H]2NC(=O)[C@@H](Cc3ccccc3)NC(=O)[C@H](CC(=O)O)NC(=O)CNC(=O)[C@H](CCCNC(=N)N)NC2=O)NC(=O)[C@@H](Cc2ccccc2)NC(=O)[C@H](CC(=O)O)NC(=O)CNC1=O [indium-111 labelled]	–	athymic nude mice, female, U-87 MG glioma xenograft, tumour and lungs	intravenous, 72 h	reference: tumour over lungs	tumour to tissue ratio	4.75 ± 0.63
CCCC[C@H](NC(=O)CNC(=O)[C@H](CO)NC(=O)CNC(=O)c1ccc(NN)nc1)C(=O)N[C@H]1CC(=O)NCCCC[C@@H](C(N)=O)NC(=O)[C@H](Cc2c[nH]c3ccccc23)NC(=O)[C@H](CCCNC(=N)N)NC(=O)[C@@H](Cc2ccccc2)NC(=O)[C@H](Cc2c[nH]cn2)NC1=O [technetium-99m labelled]	–	C57 mouse, B16/F1 melanoma	2 h	reference: tumour over skin	uptake ratio	34
C[C@@H](O)[C@H](NC(=O)[C@@H]1CSSC[C@H](NC(=O)[C@@H](Cc2ccccc2)NC(=O)CN2CCCN3CCN(CCCN(CP(=O)(O)O)CC3)CC2)C(=O)N[C@@H](Cc2ccc(O)cc2)C(=O)N[C@H](Cc2c[nH]c3ccccc23)C(=O)N[C@@H](CCCCN)C(=O)N[C@@H]([C@@H](C)O)C(=O)N1)C(=O)O [copper-64 labelled]	–	male Lewis rat, AR-42J tumour-bearing	dose not given, 1 to 24 h	–	activity excreted via kidneys	< 10%
N=C(N)NCCC[C@@H]1NC(=O)[C@H](CCCCNC(=O)CCOCCOCCOCCOCCNC(=O)CN2CCN(CC(=O)O)CCN(CC(=O)O)CCN(CC(=O)O)CC2)NC(=O)[C@@H](Cc2ccccc2)NC(=O)[C@H](CC(=O)O)NC(=O)CNC1=O [indium-111 labelled]	–	athymic nude mice, female, U-87 MG glioma xenograft, tumour and brain	intravenous, 4 h	reference: tumour over brain	tumour to tissue ratio	73.1 ± 3
CC(C)C[C@H](NC(=O)[C@@H]1CCCN1C(=O)[C@H](CCCCN)NC(=O)[C@@H](N)CO)C(=O)N1CCC[C@H]1C(=O)N[C@@H](CCC(=O)O)C(=O)N[C@H](C(=O)N[C@H](C(=O)N[C@@H](CC(=O)O)C(=O)N[C@@H](CCC(=O)O)C(=O)N[C@@H](Cc1ccc(O)cc1)C(=O)N[C@@H](Cc1cn(CCOCCOCCOCCNC(=O)CCc2ccc(O)c(CN(CCN(CC(=O)O)Cc3cc(CCC(=O)NCCCC[C@H](NC(=O)N[C@@H](CCC(=O)O)C(=O)O)C(=O)O)ccc3O)CC(=O)O)c2)nn1)C(=O)O)[C@@H](C)O)C(C)C [gallium-68 labelled]	–	NMRI nu/nu mice, LNCaP tumour, lung	10 MBq, high molar activity	–	standardized uptake value	0.25 g/g
N=C(N)NCCC[C@@H]1NC(=O)[C@H](CCCCNC(=O)CNC(=O)CNC(=O)CNC(=O)CC[C@H](NC(=O)CCOCCOCCOCCOCCNC(=O)CC[C@H](NC(=O)CN2CCN(CC(=O)O)CCN(CC(=O)O)CCN(CC(=O)O)CC2)C(=O)NCCOCCOCCOCCOCCC(=O)N[C@@H](CCC(=O)NCC(=O)NCC(=O)NCC(=O)NCCCC[C@@H]2NC(=O)[C@@H](Cc3ccccc3)NC(=O)[C@H](CC(=O)O)NC(=O)CNC(=O)[C@H](CCCNC(=N)N)NC2=O)C(=O)NCC(=O)NCC(=O)NCC(=O)NCCCC[C@@H]2NC(=O)[C@@H](Cc3ccccc3)NC(=O)[C@H](CC(=O)O)NC(=O)CNC(=O)[C@H](CCCNC(=N)N)NC2=O)C(=O)NCC(=O)NCC(=O)NCC(=O)NCCCC[C@@H]2NC(=O)[C@@H](Cc3ccccc3)NC(=O)[C@H](CC(=O)O)NC(=O)CNC(=O)[C@H](CCCNC(=N)N)NC2=O)NC(=O)[C@@H](Cc2ccccc2)NC(=O)[C@H](CC(=O)O)NC(=O)CNC1=O [indium-111 labelled]	–	athymic nude mice, female, U-87 MG glioma xenograft, tumour and blood	intravenous, 0.5 h	reference: tumour over blood	tumour to tissue ratio	13.6 ± 3.47
CSCC[C@H](NC(=O)[C@H](CC(C)C)NC(=O)[C@H](Cc1c[nH]cn1)NC(=O)CNC(=O)[C@@H](NC(=O)[C@H](C)NC(=O)[C@H](Cc1c[nH]c2ccccc12)NC(=O)[C@H](CCC(N)=O)NC(=O)CCCCCNC(=O)CN1CCN(CC(=O)O)CCN(CC(=O)O)CC1)C(C)C)C(N)=O [gallium-68 labelled]	radio-HPLC	normal saline	120 min, 37 °C	–	intact parent compound	88.4%
